Measured values pooled from the literature.
Protocols differ between the studies behind these lines.

Structure (SMILES)	cell line	assay	conditions	scale	measurement	result
CCc1nc(N)nc(N)c1C#CC(C)c1cc2c(c(-c3ccc(C(=O)O)cc3)c1)OCO2 (stereo not drawn)	MCF-10A	cytotoxicity, Alamar Blue	four hours	–	IC50	> 200 mg/L
Cc1ccc(N(C)c2cc(N(C)C3CC3)n3ncc(C#N)c3n2)cc1NC(=O)C1CC1	NCI60 cancer cell lines	cell growth	10 µM	–	inhibition	> 58 %I
[O-][S+](CCCCOc1ccc(C(=C2C3CCCC2CCC3)c2ccc(O)cc2)cc1)CCCC(F)(F)C(F)(F)F (stereo not drawn)	MCF7 inducible wild-type ERα	cell proliferation, inhibitor, MTT	5 days	–	IC50	0.0038 µM
CC(C)(C)c1ccc(C(=O)Nc2cc(Cl)c(F)cc2C(=O)O)cc1	IMR-90	cytotoxicity, CellTiter-Blue	44 to 46 h	–	EC50	> 25 µM
CCc1nc(N)nc(N)c1C#CC(C)c1cc2c(c(-c3ccc(CC(=O)O)cc3)c1)OCO2 (stereo not drawn)	HepG2	cytotoxicity, Alamar Blue	four hours	–	IC50	> 200 mg/L
CC(C)(C)c1ccc(C(=O)Nc2cc(Cl)c(Cl)cc2C(=O)O)cc1	IMR-90	cytotoxicity, CellTiter-Blue	44 to 46 h	–	EC50	> 25 µM
C=CC(=O)Nc1cc(-n2c(=O)ccc3cnc4ccc(-c5cn[nH]c5)cc4c32)ccc1C	OCI-AML-3	–	48 h	–	concentration inducing apoptosis	5 µM
Nc1ccc2ccc(CCNCCCc3cccc(F)c3)cc2n1	mouse embryonic fibroblasts	cytotoxicity, CellTiter-Glo	72 h	–	IC50	5.84 µM
[O-][S+](CCCCOc1ccc(C(=C2C3CC4CC(C3)CC2C4)c2ccc(O)cc2)cc1)CCCC(F)(F)C(F)(F)F (stereo not drawn)	MCF7 inducible wild-type ERα	cell proliferation, inhibitor, MTT	5 days	–	IC50	0.0044 µM
CC(=O)OC1CC[C@H]2C3=C(CC[C@]12C)[C@]1(C)c2c(coc2C3=O)[C@@H](OC(C)=O)[C@@H]2O[C@@H]21 (stereo partly drawn)	MDA-MB-231	DCFH-DA fluorescence	concentration not given, unit not given	reference: untreated	ROS level	1.24
COCCCn1nc(-c2ccc(CC(=O)Nc3cccc(F)c3)cc2)c2c(N)ncnc21	A549	cell viability	–	–	EC50	> 20 µM
O=C(C=Cc1ccc(C(F)(F)F)cc1)Nc1ccc(Oc2ccccc2)c(S(=O)(=O)O)c1	HEK293 AP-1-luc	AP-1 reporter gene, inhibitor	24 h, added: 20% serum	–	IC50	0.64 µM

For quick reference, copied from above:
Structure (SMILES)	cell line	assay	conditions	scale	measurement	result
CC(C)(C)c1ccc(C(=O)Nc2cc(Cl)c(Cl)cc2C(=O)O)cc1	IMR-90	cytotoxicity, CellTiter-Blue	44 to 46 h	–	EC50	> 25 µM
C=CC(=O)Nc1cc(-n2c(=O)ccc3cnc4ccc(-c5cn[nH]c5)cc4c32)ccc1C	OCI-AML-3	–	48 h	–	concentration inducing apoptosis	5 µM
